Experimental data collected from several papers.
Numbered parts are unrelated; each lists some results of a single study. Positions count from the first letter of the parent shown.

Series 1 — target: CCNB1, cyclin fold, Cln2 fusion (human); method: yeast growth competition, sequencing; matrix: yeast; setting: weak parent motif; reference: not given; direction: higher = stronger binding
Starting sequence: ITGB3BP docking peptide (human); MPVKRSLKLDGLL
Substitution	normalised enrichment score
MPVKRSAKLDGLL [L7A]	0.958
MPVKRSLKADGLL [L9A]	0.76
MPVKRSLKLDGAL [L12A]	0.555
MPAKRSLKLDGLL [V3A]	1.24
MPVKKSLKLDGLL [R5K]	0.172
MPVKRSLKLAGLL [D10A]	0.321
APVKRSLKLDGLL [M1A]	-0.135

Series 2 — method: RNA Bind-n-Seq; molecule type: RNA; matrix: in vitro; tested at: 200 nM; setting: whole 134-nt RNA, ends assumed; together with: 150 mM LiCl; reference: input library; direction: higher = stronger binding; all molecules: 7-deaza-guanosine replaces G
Target: Fragile X messenger ribonucleoprotein 1, C-terminal low-complexity region (Fmr1, Mus musculus, UniProt P35922)
Shared flanks, not repeated: GGGAGUUCUACAGUCCGACGAUC … UGGAAUUCUCGGGUGUCAAGG
Oligonucleotide	log2 enrichment
GCAGGGAGUAAAAACAAAUGGAAAUGCUUCGGAUAGUGGCAGGGGUGGGGGUUGCUAAGGAAAGGGUGGGAUGGGAGUGGGUAAAGAGUU	1.35
GCAGGAAGUAAAAACAAAUGGAAAUGCUUCGGAUAGUGGCAGGGGUGGGGGUUGCUAAGGGAAGGGUGGGAUGGGAGUGGGUAAAGAGUU	1.49
UGGGAGGUGGAUUUUGUUUAUUUUUUUAGCUCAUUUCCAGGGGUGGGAAUUUUUUUUUAAUAUGUGUCAUGAAUAAAGUUGUUUUAGAAA	0.039
UCAAGUCCUGUGCUACACAUCGUAUGUACCGAAUCGGAAAGGGAAAGGGGAAAGGAAAGUAUUAUGUUACGCCGUUCGGAUCUGCACUUC	-0.868
CACAGACAACACGCACCCACACAGACACAGAGGGAAGGGGUUGGGAUGGGGACAGGGUGCACAGCAGGGCGGGGUAGGACCCCAGCCUCU	-0.0101
AAGUCCUGUGCUACACAUCGUAUGUACCGAAUCGGUUUUUGGAAAAAGGAAAAAGGAAAGUAUUAUGUUACGCCGUUCGGAUCUGCACUU	-2.01
UCCUGUGCUACACAUCGUAUGUACCGAAUCGGGAAAAAAGGAAAAAAGGGGAAAAAAGGGAAAGUAUUAUGUUACGCCGUUCGGAUCUGC	-0.499
GUCCUGUGCUACACAUCGUAUGUACCGAAUCGGGGUUUUGGGGUUUUGGGUUUUGGGGAAAGUAUUAUGUUACGCCGUUCGGAUCUGCAC	-0.374

Series 3 — method: universal PBM; molecule type: double-stranded DNA, one strand shown; matrix: in vitro; tested at: 600 nM; direction: higher = stronger binding
Target: Sal-like protein 4, full length isoform A (SALL4, Homo sapiens, UniProt Q9UJQ4, residues 1-1053)
UniProt Q9UJQ4, sequence (whole entry, looked up): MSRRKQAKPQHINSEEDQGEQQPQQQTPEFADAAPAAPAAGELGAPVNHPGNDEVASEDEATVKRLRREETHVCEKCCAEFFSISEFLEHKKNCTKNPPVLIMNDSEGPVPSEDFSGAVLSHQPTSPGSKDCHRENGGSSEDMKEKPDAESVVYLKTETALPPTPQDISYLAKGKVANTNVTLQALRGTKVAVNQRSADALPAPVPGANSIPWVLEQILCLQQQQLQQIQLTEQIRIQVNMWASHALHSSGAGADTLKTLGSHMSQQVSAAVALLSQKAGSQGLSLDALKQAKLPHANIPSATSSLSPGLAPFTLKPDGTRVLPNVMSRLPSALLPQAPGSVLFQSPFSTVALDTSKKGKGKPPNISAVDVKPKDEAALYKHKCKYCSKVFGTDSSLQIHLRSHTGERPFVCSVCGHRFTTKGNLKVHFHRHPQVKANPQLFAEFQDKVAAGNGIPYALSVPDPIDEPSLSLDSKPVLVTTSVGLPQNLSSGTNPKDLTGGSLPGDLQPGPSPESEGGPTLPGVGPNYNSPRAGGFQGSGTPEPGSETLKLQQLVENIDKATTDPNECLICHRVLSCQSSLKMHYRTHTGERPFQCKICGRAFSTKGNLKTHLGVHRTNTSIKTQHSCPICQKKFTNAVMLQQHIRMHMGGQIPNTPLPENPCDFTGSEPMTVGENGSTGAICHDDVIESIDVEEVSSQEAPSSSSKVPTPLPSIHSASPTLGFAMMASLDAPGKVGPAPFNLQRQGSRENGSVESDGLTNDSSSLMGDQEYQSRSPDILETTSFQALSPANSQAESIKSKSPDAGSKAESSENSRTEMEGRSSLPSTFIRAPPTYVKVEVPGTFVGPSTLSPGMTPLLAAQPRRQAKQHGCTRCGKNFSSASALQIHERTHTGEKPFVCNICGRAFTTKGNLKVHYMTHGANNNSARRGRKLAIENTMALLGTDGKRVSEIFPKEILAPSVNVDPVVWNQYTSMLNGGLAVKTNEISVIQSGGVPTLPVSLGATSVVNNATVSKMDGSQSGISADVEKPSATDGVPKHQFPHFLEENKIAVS
Setting: 8-mer, flanks averaged, mean of replicates
Oligonucleotide	E-score
GTCTGTCA	0.00575
ACCCTTAG	-0.0972
AGTATTTG	0.205
ATGGCGAC	-0.191
GATACGAA	0.0628
ATGTACCC	0.029
CACGAATG	0.099
CGCTTCAA	0.0178
ATACTGGC	-0.0539
CTCATAAG	0.249
AAGAGCGA	-0.144
AGACCTTC	-0.104
GATCGGAA	-0.00568
CAACAAAA	0.25
ACATTGGA	0.0436
AGCGTTGG	-0.171
CATCGGGC	-0.352
CTTTCGTC	0.0416
ACTGCTCA	-0.00469
GGGCGCCA	-0.337
AACTCAGA	0.106
GCGGACCC	-0.386
CTTACAAA	0.13
CAAAGCTG	0.0522
AGTTTTAC	0.095

Series 4 — method: RNA Bind-n-Seq; molecule type: RNA; matrix: in vitro; tested at: 365 nM; reference: no-protein control; direction: higher = stronger binding
Target: RNA binding protein fox-1 homolog 2, RRM domain, GST-SBP tag (RBFOX2, Homo sapiens, UniProt O43251-10, residues 100-194)
Setting: natural RNA segment, single round, ends assumed
Shared flanks, not repeated: GGGAGUUCUACAGUCCGACGAUC … UGGAAUUCUCGGGUGCCAA
Construct (chain): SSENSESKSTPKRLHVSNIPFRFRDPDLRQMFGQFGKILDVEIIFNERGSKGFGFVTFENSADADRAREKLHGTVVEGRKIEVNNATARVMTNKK
Oligonucleotide	RBNS enrichment (R)
AGUUACUGACUGCUUUAGGCAUAGUCUCCGCAGAAGCCUCGUGUGUCCAGUGCUGGGUGUUUGGGUGCUUCUGUACCAGCCGUCCCCAAGCAGGGCUAAGGCACCUUGAA	0.257
UGAGAUCUAAUUCCAAGGACUUCUCCACAGCUAAGUGAGAUGCCUCACACCAUUAGGUGAUGCUUUGGACAGAACAGAGUAUUUUCAUCUUGUGUUUAAAGCAAUUCCUU	0.316
UUGAAGCGGACUGCUGCGGAUGCAACUCCCAGCUUGCCCACCGCGGGCUGUCUGCUCUCCCUCCUAGCAGCUGUCACACUGAAGUUUUGUCCUCUGCUGUCUCCUCUGGU	2.05
UAAAAUAAUCACCAUAGUAACUUGAUAUGUUAGUAUUUUUCUUUUUCCUUUUAGUAUGUUUCAAGUGCAGUAAUCGUACUUGUCUAUCCAGUUUCUAUGUAUGAUACGAG	0.69
AUGUAUAGAUUUCAGAAUAUAAGAUAUGACUGUACAUAAUUGUAAUAAAUACGAGUUGCCAUAUUUAUUCCUGGCUCUGACCUCGUCUGCUAGCCCGUGCCUCGGAGGUG	0.442
CUAAUUUAUUUUGUCUUGAGUUGUACUGCGAGAGAAGAAUAUGGGGUUUUGUAUGCCCGUGUUCCUUAAAGCCAAGGGUUUGAAAGCCACGCUGGUCUUCUGAGAUUCCA	0.233
CUACAAACUGUUACAACGUCACACAAUGAAGGCACAAAGUCCAACUUUCAAAGGGUGUAGGACUCCAUACUCAGUGACAGGGCAGGAAGAGCCAAAGAUAACCACAGCCA	0.629
CAGAGCUAUUGUGGAGGGUCAGGAAGGGUGGAGAGGAGCUGGGUUGAAGCGGACUGCUGCGGAUGCAACUCCCAGCUUGCCCACCGCGGGCUGUCUGCUCUCCCUCCUAG	0.819

Series 5 — method: RNA Bind-n-Seq; molecule type: RNA; matrix: in vitro; tested at: 20 nM; setting: 6-mer, flanks averaged, single round; together with: 150 mM LiCl; reference: input library; direction: higher = stronger binding
Target: TAR DNA-binding protein 43, full length, His tag (TARDBP, Homo sapiens, UniProt Q13148, residues 1-414)
Oligonucleotide	6-mer enrichment (R)
AGCACG	0.888
UUUAAC	0.968
CACAAG	0.836
UUAGUU	1.09
UACUUC	0.845
AAACUU	0.87
GAAUUU	0.963
CUUGCC	0.982
GUAGAA	1.16
AGGGUU	1.02
UGCGGU	1.11
UUGACC	0.971
CUUAAA	0.882
AUUACC	0.917
CGUAAA	0.828

For quick reference, copied from above (series 4):
Oligonucleotide	RBNS enrichment (R)
UUGAAGCGGACUGCUGCGGAUGCAACUCCCAGCUUGCCCACCGCGGGCUGUCUGCUCUCCCUCCUAGCAGCUGUCACACUGAAGUUUUGUCCUCUGCUGUCUCCUCUGGU	2.05
UAAAAUAAUCACCAUAGUAACUUGAUAUGUUAGUAUUUUUCUUUUUCCUUUUAGUAUGUUUCAAGUGCAGUAAUCGUACUUGUCUAUCCAGUUUCUAUGUAUGAUACGAG	0.69
CUAAUUUAUUUUGUCUUGAGUUGUACUGCGAGAGAAGAAUAUGGGGUUUUGUAUGCCCGUGUUCCUUAAAGCCAAGGGUUUGAAAGCCACGCUGGUCUUCUGAGAUUCCA	0.233
CUACAAACUGUUACAACGUCACACAAUGAAGGCACAAAGUCCAACUUUCAAAGGGUGUAGGACUCCAUACUCAGUGACAGGGCAGGAAGAGCCAAAGAUAACCACAGCCA	0.629
AUGUAUAGAUUUCAGAAUAUAAGAUAUGACUGUACAUAAUUGUAAUAAAUACGAGUUGCCAUAUUUAUUCCUGGCUCUGACCUCGUCUGCUAGCCCGUGCCUCGGAGGUG	0.442
UGAGAUCUAAUUCCAAGGACUUCUCCACAGCUAAGUGAGAUGCCUCACACCAUUAGGUGAUGCUUUGGACAGAACAGAGUAUUUUCAUCUUGUGUUUAAAGCAAUUCCUU	0.316
AGUUACUGACUGCUUUAGGCAUAGUCUCCGCAGAAGCCUCGUGUGUCCAGUGCUGGGUGUUUGGGUGCUUCUGUACCAGCCGUCCCCAAGCAGGGCUAAGGCACCUUGAA	0.257
CAGAGCUAUUGUGGAGGGUCAGGAAGGGUGGAGAGGAGCUGGGUUGAAGCGGACUGCUGCGGAUGCAACUCCCAGCUUGCCCACCGCGGGCUGUCUGCUCUCCCUCCUAG	0.819
